Measurements from different studies.
Numbered parts are unrelated; each lists some results of a single study. Changes are numbered by the printed parent chain.

Sample 1
Target: FOS, bZIP domain (human)
Method: DHFR protein complementation
Sample: yeast
Setting: single substitutions, most at no-binding floor
Relative to: wild-type JUN-FOS pair
Direction: higher = stronger binding
Quantity: binding fitness
Starting sequence: JUN, bZIP domain (human); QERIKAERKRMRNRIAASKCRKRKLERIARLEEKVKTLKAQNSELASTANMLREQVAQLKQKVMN; partner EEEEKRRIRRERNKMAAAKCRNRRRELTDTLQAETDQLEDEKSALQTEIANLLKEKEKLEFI
K39Q: -0.318 natural log
I28M: -0.0903 natural log
K34T: -0.0803 natural log
R53M: -0.734 natural log
E44A: -0.0425 natural log
L52H: -1.25 natural log
M51Y: -0.108 natural log
R53I: -0.962 natural log

Sample 2
Target: CCNE2, cyclin fold, Cln2 fusion (human)
Method: yeast growth competition, sequencing
Sample: yeast
Setting: strong parent motif
Relative to: not given
Direction: higher = stronger binding
Quantity: normalised enrichment score
Starting sequence: CDKN1B docking peptide (human); PSACRNLFGPVDH; partner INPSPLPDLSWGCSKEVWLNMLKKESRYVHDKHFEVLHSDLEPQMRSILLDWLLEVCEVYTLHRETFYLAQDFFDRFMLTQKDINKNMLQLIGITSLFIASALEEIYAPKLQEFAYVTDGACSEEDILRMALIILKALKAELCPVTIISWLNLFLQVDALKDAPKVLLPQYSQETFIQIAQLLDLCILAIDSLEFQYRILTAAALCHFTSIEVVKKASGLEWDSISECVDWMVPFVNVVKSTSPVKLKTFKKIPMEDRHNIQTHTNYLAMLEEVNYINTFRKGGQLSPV
N6H: 0.565
L7R: 0.517
R5C: -0.132
L7E: -0.0913
C4D: 0.253
L7C: -0.44
P1I: 1.25
C4N: 0.286

Other studies, line by line
P1: PafA, mature enzyme, eGFP fusion (Elizabethkingia meningoseptica, UniProt Q9KJX5); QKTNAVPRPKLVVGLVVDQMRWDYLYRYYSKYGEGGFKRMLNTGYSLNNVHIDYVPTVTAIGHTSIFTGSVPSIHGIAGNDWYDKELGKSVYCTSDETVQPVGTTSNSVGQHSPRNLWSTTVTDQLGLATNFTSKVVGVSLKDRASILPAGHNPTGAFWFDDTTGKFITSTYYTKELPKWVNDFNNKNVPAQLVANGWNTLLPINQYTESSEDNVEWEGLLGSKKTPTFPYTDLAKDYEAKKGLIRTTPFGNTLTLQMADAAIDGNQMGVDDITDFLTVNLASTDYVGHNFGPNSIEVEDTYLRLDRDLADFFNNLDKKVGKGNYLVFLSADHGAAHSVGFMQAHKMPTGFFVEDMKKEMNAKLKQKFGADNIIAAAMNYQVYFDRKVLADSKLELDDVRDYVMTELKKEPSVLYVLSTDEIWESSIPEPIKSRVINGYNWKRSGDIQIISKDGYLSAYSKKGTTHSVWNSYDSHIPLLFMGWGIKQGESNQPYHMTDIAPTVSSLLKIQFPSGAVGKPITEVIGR
PhoQ, residues 284 288 289 292 302 303 SCEHLI  fold induction (PhoP, residues 12 14 15 18 19 AQALL (Escherichia coli, UniProt P23836); Sort-seq, item: YFP reporter; E. coli; PhoQ-PhoP variant library, with: 10 µM Mg2+; relative to: high Mg2+ state, higher = stronger signaling): 0.662
P1 Q125G  oxyanion analog dissociation constant (vanadate, free oxyanion; microfluidic competitive inhibition; in vitro, cell-free expressed; not given, derived from inhibition constants, unchanged parent 676 nM; lower = stronger binding): 613 nM

A few entries again (sample 2):
L7E: -0.0913
P1I: 1.25
